Published values gathered from unrelated publications.
Compare with care: the assays were run in different laboratories. Values joined by “and” are separate records of one study, mostly repeats; a detail may differ. ± marks the error that the study gave.
B1: VCL 1-252 (Homo sapiens, UniProt P18206); sequence looked up; chain MPVFHTRTIESILEPVAQQISHLVIMHEEGEVDGKAIPDLTAPVAAVQAAVSNLVRVGKETVQTTEDQILKRDMPPAFIKVENACTKLVQAAQMLQSDPYSVPARDYLIDGSRGILSGTSDLLLTFDEAEVRKIIRVCKGILEYLTVAEVVETMEDLVTYTKNLGPGMTKMAKMIDERQQELTHQEHRVMLVNSMNTVKELLPVLISAMKIFVTTKNSKNQGIEEALKNRNFTVEKMSAEINEIIRVLQLTS
B2: ADRM1 265-388 (Homo sapiens, UniProt Q16186); chain SDLQSILATMNVPAGPAGGQQVDLASVLTPEIMAPILANADVQERLLPYLPSGESLPQTADEIQNTLTSPQFQQALGMFSAALASGQLGPLMCQFGLPAEAVEAANKGDVEAFAKAMQNNAKPE
B3: RPRD1A 2-137 (Homo sapiens, UniProt Q96P16); chain SAFSEAALEKKLSELSNSQQSVQTLSLWLIHHRKHSRPIVTVWERELRKAKPNRKLTFLYLANDVIQNSKRKGPEFTKDFAPVIVEAFKHVSSETDESCKKHLGRVLSIWEERSVYENDVLEQLKQALYGDKKPRK
B4: UPF2 761-1054 (Homo sapiens, UniProt Q9HAU5); sequence looked up; chain EKTVKKKRPPLQEYVRKLLYKDLSKVTTEKVLRQMRKLPWQDQEVKDYVICCMINIWNVKYNSIHCVANLLAGLVLYQEDVGIHVVDGVLEDIRLGMEVNQPKFNQRRISSAKFLGELYNYRMVESAVIFRTLYSFTSFGVNPDGSPSSLDPPEHLFRIRLVCTILDTCGQYFDRGSSKRKLDCFLVYFQRYVWWKKSLEVWTKDHPFPIDIDYMISDTLELLRPKIKLCNSLEESIRQVQDLEREFLIKLGLVNDKDSKDSMTEGENLEEDEEEEEGGAETEEQSGNESEVNE
B5: PXN 541-605 (Homo sapiens, UniProt P49023-3); sequence looked up; chain YHERRGSLCSGCQKPITGRCITAMAKKFHPEHFVCAFCLKQLNKGTFKEQNDKPYCQNCFLKLFC
B6: CD112R ECD 41-172 (human, UniProt Q6DKI7); sequence looked up; chain TPEVWVQVRMEATELSSFTIRCGFLGSGSISLVTVSWGGPNGAGGTTLAVLHPERGIRQWAPARQARWETQSSISLILEGSGASSPCANTTFCCKFASFPEGSWEACGSLPPSSDPGLSAPPTPAPILRADL
B7: Pigr 19-135 (Mus musculus, UniProt O70570); chain KSPIFGPQEVSSIEGDSVSITCYYPDTSVNRHTRKYWCRQGASGMCTTLISSNGYLSKEYSGRANLINFPENNTFVINIEQLTQDDTGSYKCGLGTSNRGLSFDVSLEVSQVPELPS
B8: Doc2b 13-80 (Mus musculus); chain SIQEHMAIDVCPGPIRPIKQISDYFPRFPRGLPPTAAPRAPAPPDAPARSPAASASPRSPSDGARDDD
Sequence of UniProt Q8IXW5 (whole entry, looked up): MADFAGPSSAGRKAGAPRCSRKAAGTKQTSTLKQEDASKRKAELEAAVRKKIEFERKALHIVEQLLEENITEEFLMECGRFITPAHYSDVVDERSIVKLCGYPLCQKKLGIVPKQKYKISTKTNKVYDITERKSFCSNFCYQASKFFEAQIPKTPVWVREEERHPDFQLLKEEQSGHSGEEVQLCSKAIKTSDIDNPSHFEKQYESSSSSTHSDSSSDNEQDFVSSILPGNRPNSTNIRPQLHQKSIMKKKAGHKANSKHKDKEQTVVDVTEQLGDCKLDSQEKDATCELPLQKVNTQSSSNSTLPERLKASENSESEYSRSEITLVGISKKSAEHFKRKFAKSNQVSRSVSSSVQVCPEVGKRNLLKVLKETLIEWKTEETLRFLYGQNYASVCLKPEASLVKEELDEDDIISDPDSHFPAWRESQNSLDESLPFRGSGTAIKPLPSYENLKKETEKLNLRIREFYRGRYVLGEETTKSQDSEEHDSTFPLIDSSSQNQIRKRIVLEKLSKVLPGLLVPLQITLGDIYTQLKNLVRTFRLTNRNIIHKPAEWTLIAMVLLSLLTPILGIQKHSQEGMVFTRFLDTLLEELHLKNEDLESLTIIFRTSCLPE
Sequence of UniProt Q96AC1 (whole entry, looked up): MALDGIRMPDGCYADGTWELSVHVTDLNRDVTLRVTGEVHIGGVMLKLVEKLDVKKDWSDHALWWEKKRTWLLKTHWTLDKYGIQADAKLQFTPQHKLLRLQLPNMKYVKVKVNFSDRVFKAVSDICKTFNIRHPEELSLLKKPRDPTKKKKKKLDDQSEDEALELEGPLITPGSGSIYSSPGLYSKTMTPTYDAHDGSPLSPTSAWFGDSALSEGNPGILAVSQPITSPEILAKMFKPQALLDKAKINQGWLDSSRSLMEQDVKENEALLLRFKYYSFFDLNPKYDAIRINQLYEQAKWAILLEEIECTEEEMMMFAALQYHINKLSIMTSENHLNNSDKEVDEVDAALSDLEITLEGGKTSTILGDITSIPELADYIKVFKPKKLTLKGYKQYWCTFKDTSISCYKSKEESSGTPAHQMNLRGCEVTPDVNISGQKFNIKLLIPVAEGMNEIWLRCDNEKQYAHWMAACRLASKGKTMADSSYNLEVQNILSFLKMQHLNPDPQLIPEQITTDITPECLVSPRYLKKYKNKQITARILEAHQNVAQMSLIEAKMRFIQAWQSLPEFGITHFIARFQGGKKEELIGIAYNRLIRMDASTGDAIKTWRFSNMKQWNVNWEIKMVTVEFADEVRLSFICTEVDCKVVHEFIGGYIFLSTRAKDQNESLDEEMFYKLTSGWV
Sequence of UniProt Q9SUG6 (whole entry, looked up): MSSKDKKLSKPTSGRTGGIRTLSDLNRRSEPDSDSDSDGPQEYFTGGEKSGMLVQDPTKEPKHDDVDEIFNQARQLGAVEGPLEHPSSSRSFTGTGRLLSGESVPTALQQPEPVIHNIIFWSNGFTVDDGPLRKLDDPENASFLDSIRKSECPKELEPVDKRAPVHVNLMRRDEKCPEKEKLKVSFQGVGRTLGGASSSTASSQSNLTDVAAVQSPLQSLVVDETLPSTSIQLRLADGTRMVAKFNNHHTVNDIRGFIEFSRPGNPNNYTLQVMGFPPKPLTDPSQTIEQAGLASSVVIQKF
Sequence of UniProt Q23985 (whole entry, looked up): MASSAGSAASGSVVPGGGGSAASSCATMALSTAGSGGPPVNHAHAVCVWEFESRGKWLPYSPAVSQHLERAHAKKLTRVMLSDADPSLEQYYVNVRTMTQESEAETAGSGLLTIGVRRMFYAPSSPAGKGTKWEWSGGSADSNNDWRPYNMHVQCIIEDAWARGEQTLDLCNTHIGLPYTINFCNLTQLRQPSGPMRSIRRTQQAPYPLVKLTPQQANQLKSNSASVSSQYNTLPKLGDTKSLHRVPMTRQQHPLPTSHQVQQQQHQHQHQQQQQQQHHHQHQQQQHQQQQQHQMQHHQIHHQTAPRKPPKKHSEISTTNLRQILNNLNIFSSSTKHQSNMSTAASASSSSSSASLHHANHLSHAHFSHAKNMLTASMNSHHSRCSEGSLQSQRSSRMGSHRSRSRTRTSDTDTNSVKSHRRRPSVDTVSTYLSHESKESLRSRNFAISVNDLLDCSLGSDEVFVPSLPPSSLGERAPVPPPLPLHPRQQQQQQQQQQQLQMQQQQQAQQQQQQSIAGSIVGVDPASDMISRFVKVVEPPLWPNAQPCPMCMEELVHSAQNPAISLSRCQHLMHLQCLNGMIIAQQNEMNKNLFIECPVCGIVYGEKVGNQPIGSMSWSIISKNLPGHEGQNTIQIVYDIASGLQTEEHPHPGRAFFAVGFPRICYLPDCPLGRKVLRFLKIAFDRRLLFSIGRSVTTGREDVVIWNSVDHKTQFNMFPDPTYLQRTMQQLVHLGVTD
Sequence of UniProt Q5BJF2 (whole entry, looked up): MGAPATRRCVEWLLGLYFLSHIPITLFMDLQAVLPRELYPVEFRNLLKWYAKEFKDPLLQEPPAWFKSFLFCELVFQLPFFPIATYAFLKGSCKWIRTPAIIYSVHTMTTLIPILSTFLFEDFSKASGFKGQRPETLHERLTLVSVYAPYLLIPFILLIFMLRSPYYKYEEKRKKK
Sequence of UniProt Q9NWS0 (whole entry, looked up): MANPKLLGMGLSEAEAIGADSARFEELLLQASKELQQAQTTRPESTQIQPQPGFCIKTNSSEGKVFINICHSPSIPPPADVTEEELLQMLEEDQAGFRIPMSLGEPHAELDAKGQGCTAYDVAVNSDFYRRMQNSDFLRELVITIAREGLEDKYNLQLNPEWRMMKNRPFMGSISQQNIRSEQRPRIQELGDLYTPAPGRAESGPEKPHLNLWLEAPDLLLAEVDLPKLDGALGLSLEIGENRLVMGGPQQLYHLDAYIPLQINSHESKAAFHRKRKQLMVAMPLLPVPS

| Molecule | partner | assay | test system | setting | Kd |
| --- | --- | --- | --- | --- | --- |
| YAGSDSDLDTDDEFVPY (TELO2 483-497 (Homo sapiens); pT491) | PIH1D1 1-180 (Homo sapiens, UniProt Q9NWS0) | ITC | peptide | – | 15 µM |
| VEPQKFAEELIHRLEAVQRT (AXIN1 383-402 (Homo sapiens, UniProt O15169-2); N-terminal HiLyte488; sequence looked up) | Gsk3b 26-383 (Mus musculus, UniProt Q9WV60) | fluorescence polarisation | peptide | – | 0.72 µM |
| Notch ankyrin domain R107A (Drosophila) | dx (Drosophila melanogaster, UniProt Q23985) | AUC | – | – | 12.9 µM |
| HEKHHSHREF (HTN1 residues 15-24) | TMEM97 (Homo sapiens, UniProt Q5BJF2) | SPR | peptide | – | > 50 µM |
| B1 (VCL 1-252) | Ctnna1 R551A (Mus musculus, UniProt P26231) | BLI | – | – | 0.12 µM and 0.16 µM |
| Cacna1c fragment I1691E (Rattus norvegicus) | CACNA1C IQ motif 1644-1668, fluorescein label (UniProt P15381) | fluorescence polarisation | – | – | 21 ± 5 µM |
| MAML1 fragment (Homo sapiens) | RBPJ 25-449 (Homo sapiens, UniProt Q06330) | ITC | – | – | > 20 µM |
| YLEFDPLYVRLFYVNC (engineered peptide) | VPS35/VPS26A/VPS29 retromer complex (Homo sapiens) | SPR | peptide | – | 0.0011 µM |
| B2 (ADRM1 265-388) | UCHL5 E283A/M148A/F149A (Homo sapiens) | ITC | – | – | 0.017 µM |
| B3 (RPRD1A 2-137) | RPAP2 (Homo sapiens, UniProt Q8IXW5) | ITC | – | 25 °C | > 1000 µM |
| KLLITIHDRKEFAKFEEERARAKWDTANNPLYKEATSTFTNITYRGT (ITGB3 742-788 (Homo sapiens, UniProt P05106); sequence looked up) | Tln2 312-408 Y376A (Mus musculus, UniProt Q71LX4) | NMR titration | – | – | 898 µM |
| B4 (UPF2 761-1054) | UPF3B (Homo sapiens, UniProt Q9BZI7) | BLI | – | – | 0.0369 µM |
| BIN2 (Arabidopsis thaliana, UniProt Q39011) | PCK1 (Arabidopsis thaliana, UniProt Q9T074) | BLI | – | without ATP, Kd from koff/kon | 0.18 µM |
| GCVRLHESCLGQQVPCCDPAATCYCVGRGDDNLKCYCR (designed peptide AgRP scaffold) | ITGA2B/ITGB3 K562 cells | flow cytometry | designed binder, U87MG | – | > 0.1 µM |
| B5 (PXN 541-605) | FERMT2 1-105 (Homo sapiens, UniProt Q96AC1) | NMR titration | – | – | 201 µM |
| KISPPTPKPRPPRPLPVAPGS (PIK3R1 proline-rich region 1 (Homo sapiens)) | HCK 78-138 (Homo sapiens, UniProt P08631) | ITC | peptide | – | 33.8 ± 3.5 µM |
| B6 (CD112R ECD 41-172) | NECTIN2 32-350 (Homo sapiens, UniProt Q92692) | SPR | – | – | 0.526 µM |
| TERLVLRLNRKKKKVSWKDGTVDNE (INH3 27-51 (Arabidopsis thaliana, UniProt Q8S8F7)) | PUX3 (Arabidopsis thaliana, UniProt Q9SUG6) | ITC | peptide | – | 37.7 ± 12.3 µM |
| ENAH EVH1 domain (Homo sapiens) | DBN1 peptide (Homo sapiens) | BLI | – | – | 57.3 µM |
| PCSK9 (Homo sapiens, UniProt Q8NBP7) | alirocumab IgG, PBS-stressed 14 d, Asn deamidation, heavy chain CDR1 Asn30 and Fc | SPR | – | – | 0.00062 µM |
| B7 (Pigr 19-135) | Igha/Jchain CH2-CH3 with J chain P136A/Y135A (Mus musculus) | SPR | – | – | 1.73 µM |
| B8 (Doc2b 13-80) | Unc13a MUN domain del1453-1531 (Rattus norvegicus) | ITC | – | – | 0.16 ± 0.02 µM |
| SDLACRLLGQSMDESGLPQLTSYDCEVNAPIQGSGSGSGSRNLLQGEELLRALDQVN (HIF-1α CTAD 776-826 (GS)3 insertion (Homo sapiens, UniProt Q16665); sequence looked up) | Crebbp 340-439 (Mus musculus, UniProt P45481) | fluorescence polarisation | – | – | 0.13 µM |

Excerpt of the above:
| Molecule | partner | assay | test system | setting | Kd |
| --- | --- | --- | --- | --- | --- |
| VEPQKFAEELIHRLEAVQRT (AXIN1 383-402 (Homo sapiens, UniProt O15169-2); N-terminal HiLyte488; sequence looked up) | Gsk3b 26-383 (Mus musculus, UniProt Q9WV60) | fluorescence polarisation | peptide | – | 0.72 µM |
